{"data": "Experimental data gathered from unrelated publications", "note": "Numbered parts are unrelated; each lists some results of a single study."}
{"data": "Study 1", "target": "Centromere-binding protein 1, full length, N-terminal tag (CBF1, Saccharomyces cerevisiae, UniProt P17106, residues 1-351)", "technique": "protein-binding microarray", "form": "double-stranded DNA, one strand shown", "sample": "in vitro", "tested at": "0.8 µM", "setting": "whole 60-bp probe, no competitor", "direction": "higher = stronger binding", "sequence of UniProt P17106 (whole entry, looked up)": "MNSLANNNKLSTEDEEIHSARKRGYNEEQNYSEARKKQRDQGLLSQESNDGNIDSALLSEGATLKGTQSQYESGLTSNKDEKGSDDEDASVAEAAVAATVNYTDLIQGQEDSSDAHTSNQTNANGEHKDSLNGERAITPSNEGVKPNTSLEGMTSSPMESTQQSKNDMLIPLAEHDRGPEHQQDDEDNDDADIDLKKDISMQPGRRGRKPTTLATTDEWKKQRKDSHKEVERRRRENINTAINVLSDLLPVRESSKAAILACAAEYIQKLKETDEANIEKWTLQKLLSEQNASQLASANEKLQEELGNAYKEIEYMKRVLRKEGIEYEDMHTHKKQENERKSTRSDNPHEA"}
{"Oligonucleotide": "CTAAAGTCTGCAGCTCACGTTTTAGAATAACAATTCGTCTTGATTCGCTTGACGCTGCTG", "fluorescence intensity [a.u.]": 719}
{"Oligonucleotide": "GAATGTCGTTACCCGCACGTTGTGTTTTTTGAGTAGGTCTTGATTCGCTTGACGCTGCTG", "fluorescence intensity [a.u.]": 611}
{"Oligonucleotide": "CTACAATTTACTCCCCATGTGGGAGTTCTACGTTTCGTCTTGATTCGCTTGACGCTGCTG", "fluorescence intensity [a.u.]": 555}
{"data": "Study 2", "target": "Histone acetyltransferase KAT6A, both winged helices, GST fusion (KAT6A, Homo sapiens, UniProt Q92794, residues 1-181)", "technique": "protein binding microarray", "form": "double-stranded DNA, one strand shown", "sample": "in vitro", "tested at": "not given", "setting": "8-mer, flanks averaged, mean of 2 arrays, mostly near background", "reference": "not given", "direction": "higher = stronger binding", "Construct (chain)": "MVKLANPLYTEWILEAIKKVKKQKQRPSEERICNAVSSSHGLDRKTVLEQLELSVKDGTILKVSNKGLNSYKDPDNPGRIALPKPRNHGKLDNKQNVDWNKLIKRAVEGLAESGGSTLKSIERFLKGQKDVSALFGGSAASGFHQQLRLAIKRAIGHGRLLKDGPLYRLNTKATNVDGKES"}
{"Oligonucleotide": "ACTGAACG", "E-score": 0.0894}
{"Oligonucleotide": "AAGTGACA", "E-score": -0.013}
{"Oligonucleotide": "TATTTGGA", "E-score": -0.218}
{"Oligonucleotide": "AGGAAATG", "E-score": -0.188}
{"Oligonucleotide": "CGGTTACG", "E-score": 0.316}
{"data": "Study 3", "target": "POU domain, class 5, transcription factor 1, POU domain (Pou5f1, Mus musculus, UniProt P20263, residues 131-289)", "technique": "Spec-seq", "form": "double-stranded DNA, one strand shown", "sample": "in vitro", "tested at": "not given", "setting": "whole probe, mean of replicates", "reference": "not given", "direction": "lower = stronger binding", "sequence of UniProt P20263 (131-289, looked up)": "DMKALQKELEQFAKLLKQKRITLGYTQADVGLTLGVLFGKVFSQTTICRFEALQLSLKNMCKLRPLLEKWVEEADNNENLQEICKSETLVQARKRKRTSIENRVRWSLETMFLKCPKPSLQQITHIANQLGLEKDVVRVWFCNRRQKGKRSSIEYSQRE"}
{"Oligonucleotide": "GAGTCGTCTCGTCAGCACATCGACATCCGTAGAGCACTCAGGTC", "relative binding energy [ln ratio]": 0.475}
{"Oligonucleotide": "GAGTCGTCTCGTCAGCACATCGCGATCCGTAGAGCACTCAGGTC", "relative binding energy [ln ratio]": 0.735}
{"Oligonucleotide": "GAGTCGTCTCGTCAGCACTCGTTAATCCGTAGAGCACTCAGGTC", "relative binding energy [ln ratio]": 0.267}
{"Oligonucleotide": "GAGTCGTCTCGTCAGCACATAGCAATCCGTAGAGCACTCAGGTC", "relative binding energy [ln ratio]": 0.419}
{"data": "Other studies, line by line"}
{"Molecule": "PhoQ, residues 284 288 289 292 302 303 TAVSDG", "target": "PhoP, residues 12 14 15 18 19 LHATL (Escherichia coli, UniProt P23836)", "test": "Sort-seq, item: YFP reporter", "test system": "E. coli", "conditions": "PhoQ-PhoP variant library, added: 10 µM Mg2+", "scale": "reference: high Mg2+ state, higher = stronger signaling", "endpoint": "fold induction", "result": 0.955}
{"note": "Some of these lines once more (study 3):"}
{"Oligonucleotide": "GAGTCGTCTCGTCAGCACATAGCAATCCGTAGAGCACTCAGGTC", "relative binding energy [ln ratio]": 0.419}
{"Oligonucleotide": "GAGTCGTCTCGTCAGCACTCGTTAATCCGTAGAGCACTCAGGTC", "relative binding energy [ln ratio]": 0.267}
